Experimental data gathered from unrelated publications.
Every numbered part comes from another study and shows a few of its results, in no order.

Sample 1
Target: RNA binding protein fox-1 homolog 2, RRM domain, GST-SBP tag (RBFOX2, Homo sapiens, UniProt O43251-10, residues 100-194)
Technique: RNA Bind-n-Seq
Molecule type: RNA
Matrix: in vitro
Concentration: 365 nM
Setting: natural RNA segment, single round, ends assumed
Baseline: no-protein control
Direction: higher = stronger binding
Construct (chain): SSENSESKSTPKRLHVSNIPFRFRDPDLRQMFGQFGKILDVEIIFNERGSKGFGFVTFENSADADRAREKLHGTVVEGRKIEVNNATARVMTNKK
Oligonucleotide | RBNS enrichment (R)
GGGAGUUCUACAGUCCGACGAUCGACACCCCUGUACCUCUUCUCCAGGCCCAGCCUGCCACUGGGGAUGGGAAGAGGGGUUCUGGACUGUGCCUGCAUUAACUCCACGCUGGGGAGGGCGCGCUGCUGGUCCAUGGAAUUCUCGGGUGCCAA | 0.806
GGGAGUUCUACAGUCCGACGAUCAGUCUUUUUCCCCUCAACCUGUGGUAUUUGCAGAUGACAACUUUGAAAAUAAAGCAGUCUCGGGCAGAGACGCUGUGUGACAUGUUGGCUGACAAAUUAGUCAUUGCUUAUGGAAUUCUCGGGUGCCAA | 0.244
GGGAGUUCUACAGUCCGACGAUCGCCUUAGAGUAAGUGGAAAGGACUUCUAAAAUGUGUGUGUGCUUUGCCUUCCAGAAAGCCAUCUUUGGGCUACUGUAAUAUGACAAAUAAAAUCCUCACUGUGUGCAUCCUGGAAUUCUCGGGUGCCAA | 0.698

Sample 2
Target: Interferon regulatory factor 5, full length, phosphomimetic (IRF5, Homo sapiens, UniProt Q13568-2, residues 1-514, K96S/S451D/S453D/S456D/S462D)
Technique: protein-binding microarray
Molecule type: double-stranded DNA, one strand shown
Matrix: in vitro
Concentration: 250 nM
Setting: 60-bp whole probe
With: salmon DNA 0.4 mg/ml
Baseline: random background probes
Direction: higher = stronger binding
Oligonucleotide | log fluorescence [z-score]
GCCTAGCACTTAGGTTTCGGTCTCGGTGAGTGCTAGGTCTTGATTCGCTTGACGCTGCTG | 10.1
GCCTAGCACGACGGTTTCGGTCTCGGGAGGTGCTAGGTCTTGATTCGCTTGACGCTGCTG | 9.63
GCCTAGCACGACGAACGGAGTTTCGAGACGTGCTAGGTCTTGATTCGCTTGACGCTGCTG | 3.72
GCCTAGCACGACGATTTCAGTCTTGAGACGTGCTAGGTCTTGATTCGCTTGACGCTGCTG | 1.28

Sample 3
Target: Histone acetyltransferase KAT6A, both winged helices, GST fusion (KAT6A, Homo sapiens, UniProt Q92794, residues 1-181)
Technique: protein binding microarray
Molecule type: double-stranded DNA, one strand shown
Matrix: in vitro
Concentration: not given
Setting: 8-mer, flanks averaged, mean of 2 arrays, mostly near background
Baseline: not given
Direction: higher = stronger binding
Target sequence (chain): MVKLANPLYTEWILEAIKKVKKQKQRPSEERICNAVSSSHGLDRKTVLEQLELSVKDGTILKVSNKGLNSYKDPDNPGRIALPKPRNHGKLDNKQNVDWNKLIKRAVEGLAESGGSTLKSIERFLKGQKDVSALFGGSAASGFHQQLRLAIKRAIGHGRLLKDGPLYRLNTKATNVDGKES
Oligonucleotide | E-score
GATGGGCA | -0.164
TAACGGAA | 0.233
AAACCAAT | -0.189
GCACTCGA | -0.119
CTGTAACC | 0.0717

Mixed results
Molecule | target | assay | system | setting | how to read | quantity | value
PhoQ, residues 284 288 289 292 302 303 SNGLAW | PhoP, residues 12 14 15 18 19 STWGI (Escherichia coli, UniProt P23836) | Sort-seq, measured: YFP reporter | E. coli | PhoQ-PhoP variant library, with: 10 µM Mg2+ | baseline: high Mg2+ state, higher = stronger signaling | fold induction | 8.86

Excerpt of the above (mixed results):
Molecule | target | assay | system | setting | how to read | quantity | value
PhoQ, residues 284 288 289 292 302 303 SNGLAW | PhoP, residues 12 14 15 18 19 STWGI (Escherichia coli, UniProt P23836) | Sort-seq, measured: YFP reporter | E. coli | PhoQ-PhoP variant library, with: 10 µM Mg2+ | baseline: high Mg2+ state, higher = stronger signaling | fold induction | 8.86
